Literature values, collected from citations in different studies.
Numbered parts are unrelated; values within a part may stem from several laboratories. Values joined by “and” are separate records of one study, mostly repeats; a detail may differ. Numbers after ± are the reported error.

Series 1
Organism: Cryptosporidium parvum
Technique: high-throughput screen
Tested at: concentration not given
SMILES | activity
COc1ccc(C(=O)NCc2ccc(OCCN(C)C)cc2)cc1OC.Cl | inactive
Clc1ccccc1C(c1ccccc1)(c1ccccc1)n1ccnc1 | inactive
NCc1ccc(S(N)(=O)=O)cc1 | inactive
CC(C)OC(=O)CCC/C=C\C[C@@H]1[C@@H](CC[C@@H](O)CCc2ccccc2)[C@H](O)C[C@@H]1O | inactive
c1ccc2[nH]c(-c3cscn3)nc2c1 | inactive
O=C(O[C@H]1[C@H](Oc2ccccc2COC(=O)C2(O)C=CCCC2=O)O[C@H](CO)[C@@H](O)[C@@H]1O)c1ccccc1 (stereo partly drawn) | inactive
CCCc1nc(C(C)(C)O)c(C(=O)OCc2oc(=O)oc2C)n1Cc1ccc(-c2ccccc2-c2nnn[nH]2)cc1 | inactive
CCN1CCN(c2cc3c(cc2F)c(=O)c(C(=O)O)cn3C2CC2)CC1 | inactive
CC(C)C[C@H](NC(=O)[C@@H](COC(C)(C)C)NC(=O)[C@H](Cc1ccc(O)cc1)NC(=O)[C@H](CO)NC(=O)[C@H](Cc1c[nH]c2ccccc12)NC(=O)[C@H](Cc1cnc[nH]1)NC(=O)[C@@H]1CCC(=O)N1)C(=O)N[C@@H](CCCNC(=N)N)C(=O)N1CCC[C@H]1C(=O)NNC(N)=O | inactive
COC(=O)C1=C(C)NC(C)=C(C(=O)OCC(C)C)C1c1ccccc1[N+](=O)[O-] (stereo not drawn) | inactive
Br.O=C1CC2(CCCC2)CC(=O)N1CCNCC1COc2ccccc2O1 (stereo not drawn) | inactive
O=C(O)c1cc(/N=N/c2ccc(S(=O)(=O)Nc3ccccn3)cc2)ccc1O | inactive
CN1[C@@H]2C[C@@H](OC(=O)[C@H](CO)c3ccccc3)C[C@H]1[C@@H]1O[C@@H]12 | inactive
CC(C)NCC(O)COc1cccc2[nH]ccc12 (stereo not drawn) | inactive
C[n+]1ccccc1/C=N/O | inactive
CN1CC(=O)N2[C@H](c3ccc4c(c3)OCO4)c3[nH]c4ccccc4c3C[C@@H]2C1=O | inactive
Nc1ccc(S(=O)(=O)c2ccc(N)cc2)cc1 | inactive
CC(C(=O)O)c1ccc(CC2CCCC2=O)cc1 (stereo not drawn) | inactive
Nc1nc(O)c2ncn(COC(CO)CO)c2n1 | inactive
COc1c(N2CCNC(C)C2)c(F)cc2c(=O)c(C(=O)O)cn(C3CC3)c12 (stereo not drawn) | inactive
COCC1=C(C(=O)OC(C)OC(=O)OC(C)C)N2C(=O)[C@@H](NC(=O)/C(=N\OC)c3csc(N)n3)[C@H]2SC1 (stereo partly drawn) | inactive
CCCCc1oc2ccccc2c1C(=O)c1cc(I)c(OCCN(CC)CC)c(I)c1 | inactive
Cc1nc2ccccn2c(=O)c1CCN1CCC(C(=O)c2ccc(F)cc2)CC1 | inactive
Cc1nccn1CC1CCc2c(c3ccccc3n2C)C1=O (stereo not drawn) | inactive
CC(=O)NS(=O)(=O)c1ccc(N)cc1 | inactive

Mixed results
uncharacterized protein: uncharacterized protein (Trichomonas vaginalis, UniProt A2EYV3)
Structure (SMILES) | target or system | test | system | setting | scale | measurement | value
CCOc1ccc(-c2nc3ccc(-c4nc5ccc(N6CCN(C)CC6)cc5[nH]4)cc3[nH]2)cc1 | – | – | PBS with 0.1% SDS | – | – | fluorescence quantum yield | 0.541 ± 0.002
CC(C)C[C@H](NP(=O)(O)O[C@@H]1O[C@@H](C)[C@H](O)[C@@H](O)[C@H]1O)C(=O)N[C@@H](Cc1c[nH]c2ccccc12)C(=O)O | neprilysin | inhibitor | – | – | – | IC50 | 34 nM
Cn1ncnc1[C@H]1c2n[nH]c(=O)c3cc(F)cc(c23)N[C@@H]1c1ccc(F)cc1 | – | – | human adults | – | – | half-life | ~50 h
Cl.N=C(CC(O)c1cc2c(F)cc(F)cc2c2cc(C(F)(F)F)ccc12)Nc1ccc(F)c(F)c1 (stereo not drawn) | Plasmodium berghei | – | ANKA, mouse | oral, 50 mg/kg for 4 doses, day 4 | relative to: vehicle | parasitaemia reduction | 99.7% and > 99%
NC(=O)c1ncn([C@@H]2O[C@H](CO)[C@@H](O)[C@H]2O)c1O | uncharacterized protein | inhibitor | – | – | – | IC50 | > 250000 nM
Cc1nc(Cc2cccc(C(F)(F)F)c2)sc1-c1ccc(C(N)=O)nc1 | GPR52 human | cellular activity | – | – | – | EC50 | 1000 nM
CCc1c(Cl)c(O)c(Cl)c(O)c1C(=O)O[C@H]1[C@H](O)[C@H](OC)[C@H](OC/C2=C\C=C\C[C@H](O)/C(C)=C/[C@H](CC)[C@@H](O[C@@H]3OC(C)(C)[C@@H](OC(=O)C(C)C)[C@H](O)[C@@H]3O)/C(C)=C/C(C)=C/C[C@@H]([C@@H](C)O)OC2=O)O[C@@H]1C | Klebsiella pneumoniae | – | ATCC 700603 | – | – | MIC | > 128 µg/mL
CCNc1nc(Cl)nc(NC(C)C)n1 | MDR1 (P-glycoprotein), mouse | – | B16/F10 melanoma | concentration not given | – | inhibition | no inhibition
Cc1c(C)c2c(c(C)c1O)CCC(C)(COc1ccc(CC3SC(=O)NC3=O)cc1)O2 (stereo not drawn) | primary human hepatocyte spheroids | cell viability | – | 3 days | – | IC50 | < 40000 nM
Nc1cc(C(F)(F)F)c(-c2cc(N3CCOCC3)nc(N3CCOCC3)n2)cn1 | A 172 | – | – | – | – | IC50 | 1230 nM
Oc1ccc(-c2nc(-c3ccc(OC4CCCC4)cc3)no2)cc1 | Lactobacillus gasseri | – | HM-644 | – | – | MIC | > 128 µg/mL
CC(C)NCCCC[C@H](NC(=O)[C@H]1CCC(=O)N[C@@H](Cc2ccccc2)C(=O)N[C@@H](Cc2ccc(O)cc2)C(=O)N[C@@H](CCCCNC(C)C)C(=O)N[C@H](CCCNC(=N)N)C(=O)N[C@@H](Cc2ccc3ccccc3c2)C(=O)NCC(=O)N1)C(N)=O | CXCR4 (human) | – | – | – | – | IC50 | 27.8 ± 7.4 nM
C[C@H](c1ccnc(Nc2nc3ccc(-c4cc(N(C)C)ncn4)cc3[nH]2)c1)N1CCN(C(=O)CC(F)(F)F)CC1 | TBK1 | – | – | low ATP | – | IC50 | 2 nM
CC(C)c1nc(N(C)S(C)(=O)=O)nc(-c2ccc(F)cc2)c1/C=C/[C@@H](O)C[C@@H](O)CC(=O)O | – | – | plasma | – | – | plasma half-life | ~19 h
O=C(O)c1cc(O)c(O)c(O)c1 | – | – | human | oral, 50 mg | – | Tmax | 1.6 h
CCC(F)(F)c1cc(N2CCC(S(C)(=O)=O)CC2)nc2sc(C(N)=O)c(N)c12 | IKBKB | biochemical activity | – | – | – | IC50 | 49 nM
O=C(O)Cc1ccccc1Nc1c(Cl)cccc1Cl | primary human hepatocyte spheroids | cell viability | – | 3 days | – | IC50 | 191000 nM
N/C(CC(O)c1cc2c(F)cc(F)cc2c2cc(C(F)(F)F)ccc12)=N\c1ccc(F)cc1 (stereo not drawn) | β-hematin formation | inhibitor | – | NP-40 detergent | – | IC50 | 9400 ± 300 nM
CO[C@H]1C[C@@H]2CC[C@@H](C)[C@@](O)(O2)C(=O)C(=O)N2CCCC[C@H]2C(=O)O[C@H]([C@H](C)C[C@@H]2CC[C@@H](O)[C@H](OC)C2)CC(=O)[C@H](C)/C=C(\C)[C@@H](O)[C@@H](OC)C(=O)[C@H](C)C[C@H](C)/C=C/C=C/C=C/1C | recombinant human CYP3A5 | substrate | – | – | – | intrinsic clearance | 3.96 µL/min/pmol
NC(=O)c1ncn([C@@H]2O[C@H](CO)[C@@H](O)[C@H]2O)n1 | uncharacterized protein | inhibitor | – | – | – | IC50 | > 50000 nM
CC(=O)N1CCN(c2ccc(OCC3COC(Cn4ccnc4)(c4ccc(Cl)cc4Cl)O3)cc2)CC1 (stereo not drawn) | – | refers to: lenvatinib | – | co-administration with compound | – | elimination half-life | no effect
O=C(O)C(Cc1ccc2c(c1)oc1ccccc12)NCP(=O)(O)O (stereo not drawn) | ECE1 | enzyme activity, inhibitor | – | – | – | IC50 | 22 nM
Cn1cncc1[C@@](O)(COc1ccc(C#N)cc1-c1ccc(OC(F)(F)F)cc1)c1ccc(C#N)cc1 | FNTB | biochemical activity | – | – | – | IC50 | > 100 nM
O=C(c1cc(Cc2n[nH]c(=O)c3ccccc23)ccc1F)N1CCN(C(=O)C2CC2)CC1 | – | – | human | 300 mg tablet | relative to: 400 mg capsule | AUC(0-12h) | increased
CCn1cc(-c2cc(Cn3ccnc3)cc3c2CCN([C@H](c2cc(OC)ccn2)C2CC2)C3=O)c(C(F)(F)F)n1 | – | – | mouse whole blood | 1 µM | – | unbound fraction | 0.2%
CC(=O)Nc1cccc(-n2c(=O)n(C3CC3)c(=O)c3c(Nc4ccc(I)cc4F)n(C)c(=O)c(C)c32)c1 | T98G | – | – | – | – | IC50 | 10300 nM

Some of these lines once more (series 1):
SMILES | activity
CC(C)OC(=O)CCC/C=C\C[C@@H]1[C@@H](CC[C@@H](O)CCc2ccccc2)[C@H](O)C[C@@H]1O | inactive
O=C(O[C@H]1[C@H](Oc2ccccc2COC(=O)C2(O)C=CCCC2=O)O[C@H](CO)[C@@H](O)[C@@H]1O)c1ccccc1 (stereo partly drawn) | inactive
COc1ccc(C(=O)NCc2ccc(OCCN(C)C)cc2)cc1OC.Cl | inactive
CC(C(=O)O)c1ccc(CC2CCCC2=O)cc1 (stereo not drawn) | inactive
c1ccc2[nH]c(-c3cscn3)nc2c1 | inactive
CC(C)C[C@H](NC(=O)[C@@H](COC(C)(C)C)NC(=O)[C@H](Cc1ccc(O)cc1)NC(=O)[C@H](CO)NC(=O)[C@H](Cc1c[nH]c2ccccc12)NC(=O)[C@H](Cc1cnc[nH]1)NC(=O)[C@@H]1CCC(=O)N1)C(=O)N[C@@H](CCCNC(=N)N)C(=O)N1CCC[C@H]1C(=O)NNC(N)=O | inactive
CN1[C@@H]2C[C@@H](OC(=O)[C@H](CO)c3ccccc3)C[C@H]1[C@@H]1O[C@@H]12 | inactive
CCCc1nc(C(C)(C)O)c(C(=O)OCc2oc(=O)oc2C)n1Cc1ccc(-c2ccccc2-c2nnn[nH]2)cc1 | inactive
